Measurements of several laboratories.
Compare with care: the assays were run in different laboratories. Values joined by “and” are separate records of one study, mostly repeats; a detail may differ. ± marks the error that the study gave.
Chain of UniProt Q16288 (whole entry, looked up): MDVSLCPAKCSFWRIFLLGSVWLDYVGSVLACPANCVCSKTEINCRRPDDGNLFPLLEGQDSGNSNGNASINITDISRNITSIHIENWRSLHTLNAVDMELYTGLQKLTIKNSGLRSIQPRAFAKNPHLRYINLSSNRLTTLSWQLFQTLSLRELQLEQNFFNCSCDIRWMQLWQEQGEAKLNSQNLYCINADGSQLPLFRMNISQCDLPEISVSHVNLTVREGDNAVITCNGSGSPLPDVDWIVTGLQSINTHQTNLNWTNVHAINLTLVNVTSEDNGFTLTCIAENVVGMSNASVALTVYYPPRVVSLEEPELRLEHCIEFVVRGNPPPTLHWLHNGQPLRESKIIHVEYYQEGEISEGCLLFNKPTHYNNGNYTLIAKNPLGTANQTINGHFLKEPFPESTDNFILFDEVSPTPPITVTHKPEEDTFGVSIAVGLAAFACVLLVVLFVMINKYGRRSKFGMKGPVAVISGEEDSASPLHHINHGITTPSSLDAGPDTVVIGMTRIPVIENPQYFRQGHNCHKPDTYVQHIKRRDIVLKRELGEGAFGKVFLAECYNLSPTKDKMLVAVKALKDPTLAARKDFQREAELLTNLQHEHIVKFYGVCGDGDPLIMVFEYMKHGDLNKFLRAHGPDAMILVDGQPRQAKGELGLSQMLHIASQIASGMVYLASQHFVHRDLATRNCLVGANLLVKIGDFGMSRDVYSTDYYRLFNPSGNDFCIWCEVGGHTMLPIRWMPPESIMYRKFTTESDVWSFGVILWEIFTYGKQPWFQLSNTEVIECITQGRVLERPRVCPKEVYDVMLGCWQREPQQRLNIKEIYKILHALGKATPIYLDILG
Chain of UniProt Q15418 (whole entry, looked up): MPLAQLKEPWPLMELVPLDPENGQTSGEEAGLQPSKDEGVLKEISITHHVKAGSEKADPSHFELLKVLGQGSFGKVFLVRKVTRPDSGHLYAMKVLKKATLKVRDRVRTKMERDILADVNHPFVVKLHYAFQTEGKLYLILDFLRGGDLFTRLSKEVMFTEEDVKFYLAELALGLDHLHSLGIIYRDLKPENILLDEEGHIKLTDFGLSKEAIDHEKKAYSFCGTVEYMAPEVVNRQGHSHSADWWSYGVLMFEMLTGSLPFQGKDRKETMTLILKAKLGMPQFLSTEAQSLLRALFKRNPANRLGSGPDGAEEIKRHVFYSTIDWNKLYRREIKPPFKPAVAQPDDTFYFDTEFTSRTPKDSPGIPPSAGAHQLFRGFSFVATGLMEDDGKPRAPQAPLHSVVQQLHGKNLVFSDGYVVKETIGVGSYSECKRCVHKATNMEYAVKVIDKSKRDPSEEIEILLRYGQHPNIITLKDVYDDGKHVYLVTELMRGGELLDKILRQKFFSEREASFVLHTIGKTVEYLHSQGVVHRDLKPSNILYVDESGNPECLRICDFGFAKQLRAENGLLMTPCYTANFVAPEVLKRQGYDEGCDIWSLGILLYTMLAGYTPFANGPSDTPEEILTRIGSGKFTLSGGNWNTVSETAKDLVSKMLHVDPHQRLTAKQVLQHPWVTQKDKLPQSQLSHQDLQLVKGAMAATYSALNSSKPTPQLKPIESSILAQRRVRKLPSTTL
Chain of UniProt Q15375 (whole entry, looked up): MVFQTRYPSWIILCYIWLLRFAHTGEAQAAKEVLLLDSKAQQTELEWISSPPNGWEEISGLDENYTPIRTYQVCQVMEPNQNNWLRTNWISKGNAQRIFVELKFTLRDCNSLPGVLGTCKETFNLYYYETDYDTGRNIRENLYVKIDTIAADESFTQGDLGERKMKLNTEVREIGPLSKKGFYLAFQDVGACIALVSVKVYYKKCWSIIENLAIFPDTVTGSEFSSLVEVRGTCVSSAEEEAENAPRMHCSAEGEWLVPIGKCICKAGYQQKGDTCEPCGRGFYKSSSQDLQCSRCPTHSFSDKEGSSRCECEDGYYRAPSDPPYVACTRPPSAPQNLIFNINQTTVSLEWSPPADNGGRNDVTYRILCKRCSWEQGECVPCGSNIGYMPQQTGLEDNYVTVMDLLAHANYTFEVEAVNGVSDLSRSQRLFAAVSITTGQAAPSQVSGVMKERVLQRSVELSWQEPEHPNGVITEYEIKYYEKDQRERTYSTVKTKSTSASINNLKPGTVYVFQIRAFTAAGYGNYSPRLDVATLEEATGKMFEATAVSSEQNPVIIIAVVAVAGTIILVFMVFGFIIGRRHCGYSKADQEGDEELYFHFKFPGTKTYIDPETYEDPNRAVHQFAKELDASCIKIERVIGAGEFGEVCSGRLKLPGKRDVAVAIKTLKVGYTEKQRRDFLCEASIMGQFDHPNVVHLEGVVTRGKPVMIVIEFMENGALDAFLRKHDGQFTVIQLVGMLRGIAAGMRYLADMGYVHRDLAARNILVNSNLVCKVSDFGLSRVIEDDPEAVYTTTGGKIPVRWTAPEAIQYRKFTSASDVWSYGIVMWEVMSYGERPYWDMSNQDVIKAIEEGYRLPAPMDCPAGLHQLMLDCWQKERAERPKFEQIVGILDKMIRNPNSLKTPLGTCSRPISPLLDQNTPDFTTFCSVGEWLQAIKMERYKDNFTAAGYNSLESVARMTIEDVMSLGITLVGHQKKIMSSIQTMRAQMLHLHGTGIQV

| SMILES | tested on | assay | test system | setting | scale | measurement | result |
| --- | --- | --- | --- | --- | --- | --- | --- |
| CNC(=O)C[C@H](Cc1ccncc1)NC(=O)[C@@H](Cc1cccc(Br)c1)NC(=O)[C@@H](N)Cc1ccsc1 | Huh-7-ACE2 | CellTiter-Glo | – | 0.000191 µM, 48 h, unit not given | baseline: DMSO | viability | 1 and 0.949 |
| O=C1NC2(CC2)COc2ncc(F)cc2[C@H]2COCCN2c2ccn3ncc1c3n2 | – | – | Sprague-Dawley rat, male, serum | oral, 10 mg/kg/day, end of treatment, 4-week subacute toxicity | – | serum potassium | 4.88 ± 0.94 mmol/L |
| COc1ccc(C[C@@H]2c3cc(Oc4cc(C[C@H]5c6cc(OC)c(OC)cc6CCN5C)ccc4O)c(OC)cc3CCN2C)cc1 | A549-hACE2 | cytotoxicity | – | 96 h | – | CC50 | 45.4 ± 4.32 µM |
| CN(C)[C@H]1C[C@@]23CC[C@@]4(O2)C(=CC[C@]2(C)[C@@H](c5ccc6ccncc6c5)CC[C@H]24)C=C3[C@@H](O)[C@@H]1O | Ribosomal protein S6 kinase alpha-1, kinase domain 2 (RPS6KA1, Homo sapiens, UniProt Q15418) | ATP probe labelling, inhibitor, KiNativ profiling | – | 0.1 µM | – | inhibition | -8.1% |
| CNC(=O)C[C@H](Cc1ccc(F)cc1)NC(=O)[C@@H](Cc1ccc(Cl)cc1Cl)NC(=O)[C@H](N)Cc1ccccc1[N+](=O)[O-] | Huh-7-ACE2 | CellTiter-Glo | – | 0.0488 µM, 48 h, unit not given | baseline: DMSO | viability | 0.976 and 1.01 and 1.07 |
| CC[C@H](C)[C@H](NC(=O)CN)C(=O)N[C@@H](Cc1c[nH]c2ccccc12)C(=O)N[C@@H](CCCCN)C(=O)N1CCC[C@H]1C(=O)N[C@H](C(=O)N[C@@H](Cc1ccccc1)C(=O)N[C@H](C(=O)N[C@@H](Cc1ccc(O)cc1)C(=O)N[C@@H](CC(C)C)C(=O)N[C@@H](C)C(=O)N[C@H](C(=O)N1CCC[C@H]1C(=O)N[C@H](C(=O)N[C@@H](Cc1c[nH]cn1)C(=O)N[C@@H](Cc1ccccc1)C(=O)N[C@@H](CCCCN)C(=O)N[C@@H](Cc1ccccc1)C(=O)O)[C@@H](C)CC)[C@@H](C)O)[C@@H](C)O)[C@@H](C)CC | HUVEC | cytotoxicity, MTT | – | 24 h, 37 °C | – | IC50 | 39.5 µM |
| CC(=O)NCC(=O)N[C@@H](CCCNC(=N)N)C(=O)N[C@@H](CCCCN)C(=O)N[C@@H](CCCCN)C(=O)N[C@@H](CCCNC(=N)N)C(=O)N[C@@H](CCCNC(=N)N)C(=O)N[C@@H](CCC(N)=O)C(=O)N[C@@H](CCCNC(=N)N)C(=O)N[C@@H](CCCNC(=N)N)C(=O)N[C@@H](CCCNC(=N)N)C(=O)N1CCC[C@H]1C(=O)N[C@@H](CCC(N)=O)C(N)=O | HEK-293T | subcellular fractionation LC-MS | nuclear fraction | 20 µM, 24 h | – | peptide amount | 0.0126 nmol and 0.011 nmol and 0.0082 nmol |
| COc1ccccc1-c1n[nH]c2nc(NC3CCN(C(=O)Cc4ccc(F)cc4F)CC3)ncc12 | – | bead binding, competition bead pull-down, item: LINJ.34.0720 | Leishmania donovani extract | 10 µM | baseline: vehicle | relative abundance | 0.84 |
| COc1cc(/C=C/C(=O)Oc2cc(C(F)(F)F)cc(C(F)(F)F)c2)ccc1OC(C)=O | HaCaT | MTT | – | 24 h, 10% FBS | – | subcytotoxic concentration | 50 µM |
| CC[C@H](C)[C@H](NC(=O)[C@H](C)NC(=O)[C@H](CCCCN)NC(=O)[C@H](CCCCN)NC(=O)[C@@H](N)CCCNC(=N)N)C(=O)N[C@@H](CCCCN)C(=O)N[C@@H](CC(C)C)C(=O)N[C@H](C(=O)N[C@@H](CCCCN)C(=O)N[C@@H](CCCCN)C(=O)N[C@@H](CC(C)C)C(=O)N[C@H](C(=O)N[C@@H](CCCCN)C(=O)N[C@@H](CCCCN)C(=O)N[C@@H](CC(C)C)C(=O)N[C@@H](CCCCN)C(=O)N[C@@H](CCCCN)C(=O)N[C@@H](C)C(=O)N[C@@H](CC(C)C)C(=O)N[C@@H](CCCCN)C(=O)O)C(C)C)C(C)C | HaCaT | cell growth or viability, MTT | – | 64 µg/mL | – | viability | 86% |
| CC[C@H](C)[C@H](NC(=O)[C@H](CO)NC(=O)[C@H](Cc1ccc(O)cc1)NC(=O)[C@H](Cc1ccc(O)cc1)NC(=O)[C@H](CC(N)=O)NC(=O)CNC(=O)[C@H](CO)NC(=O)[C@H](Cc1ccc(O)cc1)NC(=O)[C@H](CO)NC(=O)[C@H](CO)NC(=O)[C@H](CC(N)=O)NC(=O)COCCOCCNC(=O)CN1CCN(CC(=O)O)CCN(CC(=O)O)CCN(CC(=O)O)CC1)C(=O)N[C@@H](CC(C)C)C(N)=O [copper-64 labelled] | – | dynamic PET | KPC mouse Ptf1a-CreER tdTomato, metastases | intravenous, 4.6 MBq/mouse, 8.5 min, 84 d after tamoxifen | – | tissue uptake | 15.3 %ID/mL |
| CC[C@H](C)[C@H](NC(=O)[C@H](C)NC(=O)[C@H](CCCCN)NC(=O)[C@H](CC(C)C)NC(=O)[C@@H](N)Cc1ccccc1)C(=O)N[C@@H](CCCCN)C(=O)N[C@@H](CCCCN)C(=O)N[C@@H](Cc1ccccc1)C(=O)NCC(=O)N[C@@H](CCCCN)C(=O)N[C@@H](CCC(=O)O)C(=O)N[C@@H](Cc1ccccc1)C(=O)N[C@@H](CCCCN)C(=O)N[C@@H](CCCCN)C(=O)N[C@H](C(=O)NCC(=O)N[C@@H](C)C(=O)N[C@@H](CCCCN)C(=O)N[C@@H](CC(C)C)C(=O)N[C@@H](CCCCN)C(=O)O)[C@@H](C)CC | HaCaT | cell growth or viability, MTT | – | 32 µg/mL | – | viability | 89.6% |
| COc1ccc2nc3cc(Cl)ccc3c(NCCNC(C)=C3C(=O)C=C4Oc5c(C(C)=O)c(O)c(C)c(O)c5C4(C)C3=O)c2c1 (stereo not shown) | L6 rat skeletal myoblasts | cytotoxicity, Alamar Blue | – | – | – | IC50 | 9.6 µM |
| CC[C@H](C)[C@H](NC(=O)[C@H](CCCCN)NC(=O)[C@H](CC(N)=O)NC(=O)CNC(=O)[C@@H](NC(=O)[C@H](C)NC(=O)[C@H](CCCNC(=N)N)NC(=O)[C@H](CC(C)C)NC(=O)[C@H](CCCCN)NC(=O)[C@H](CCCCN)NC(=O)[C@H](CCCCN)NC(=O)[C@H](C)NC(=O)[C@H](CCCCN)NC(=O)[C@@H]1CSSC[C@H](NC(=O)[C@H](CCCNC(=N)N)NC(=O)CN)C(=O)N[C@@H](CC(N)=O)C(=O)N[C@@H](CC(C)C)C(=O)N[C@@H](CC(C)C)C(=O)N1)C(C)C)C(=O)N[C@@H](CCCCN)C(=O)N[C@@H](CCC(=O)O)C(=O)N[C@H](C(=O)N[C@@H](CCCCN)C(=O)N[C@@H](CC(N)=O)C(=O)N[C@H](C(=O)N[C@H](C(=O)N[C@@H](Cc1ccccc1)C(=O)N[C@@H](CC(N)=O)C(=O)N[C@@H](CCCNC(=N)N)C(=O)O)C(C)C)C(C)C)[C@@H](C)CC | human erythrocytes | – | – | 10 µM, 30 min, 37 °C | baseline: Triton X-100 | hemolysis | 1.23 ± 4.95% |
| CCN(CCCCOc1ccc(CCC(=O)N2CCC(Cc3ccccc3)CC2)cc1OC)Cc1ccccc1 | Caco-2 monolayer | – | – | 20 µM, 120 min | – | Papp(B-A) | 12.8 ± 1.82 ×10⁻⁶ cm/s |
| CC(C)(C)C(=O)OCOP(=O)(OCOC(=O)C(C)(C)C)C1CCCN(O)C1=O (stereo not shown) | IGROV-1 | – | – | – | – | log GI50 | -6.41 log M |
| CCOc1ccc(CN2CC[C@H]2C(=O)NC)cc1-c1cccc(C(=O)NC[C@@H]2COC(C)(C)O2)c1 | Huh-7-ACE2 | CellTiter-Glo | – | 0.0244 µM, 48 h, unit not given | baseline: DMSO | viability | 1.06 and 1.13 and 1 |
| CC(C)C[C@H](NC(=O)[C@@H](NC(=O)[C@H](CCCNC(=N)N)NC(=O)[C@H](CCC(N)=O)NC(=O)[C@H](Cc1ccccc1)NC(=O)[C@H](Cc1ccc(O)cc1)NC(=O)[C@H](CC(N)=O)NC(=O)[C@H](Cc1c[nH]c2ccccc12)NC(=O)[C@@H](NC(=O)[C@H](CCCNC(=N)N)NC(=O)[C@H](CCCCN)NC(=O)[C@@H](N)Cc1ccccc1)C(C)C)C(C)C)C(=O)N[C@H](C(=O)N[C@@H](CCCCN)C(=O)N[C@@H](CCCCN)C(=O)N[C@@H](Cc1ccc(O)cc1)C(N)=O)C(C)C | rat erythrocytes | – | – | 200 µM, 60 min, 37 °C | – | hemolysis | 62.7 ± 0.2% |
| CC(C)[C@H]1NC(=O)C[C@H]2/C=C/CCSSC[C@@H](NC1=O)C(=O)N[C@H](Cc1cccc3ccccc13)C(=O)NCC(=O)O2 | NT-3 growth factor receptor (NTRK3, Homo sapiens, UniProt Q16288) | enzyme activity, inhibitor | – | 10 µM | – | inhibition | -1.5% |
| CS(C)(=O)=Nc1ccc(-c2ccc(-c3nc4cc(O[C@@H]5CO[C@H]6[C@@H]5OC[C@H]6O)[nH]c4cc3F)cc2)cc1 | Ephrin type-A receptor 7 (EPHA7, Homo sapiens, UniProt Q15375) | enzyme activity, inhibitor | – | 10 µM | – | inhibition | 1% |
| COc1cc(/C=C/C(=O)Oc2cc(C(F)(F)F)ccc2C(F)(F)F)ccc1O | HaCaT | cell growth or viability, MTT | – | 24 h | – | CC50 | 21.3 µM |
| CC(C)C[C@@H](NC(=O)[C@H](NC(=O)[C@@H](CCCCN)NC(=O)[C@@H](CCCCN)NC(=O)[C@@H](CC(C)C)NC(=O)[C@@H](Cc1c[nH]c2ccccc12)NC(=O)[C@@H](CCCCN)NC(=O)[C@@H](Cc1c[nH]c2ccccc12)NC(=O)[C@@H](CC(C)C)NC(=O)[C@@H](CCCCN)NC(=O)[C@@H](CCCCN)NC(=O)[C@H](N)C(C)C)C(C)C)C(N)=O | sheep red blood cells | 10% haemolysis | – | 1 h, 37 °C | – | minimum haemolytic concentration | 75 µM |

A few entries again:
| SMILES | tested on | assay | test system | setting | scale | measurement | result |
| --- | --- | --- | --- | --- | --- | --- | --- |
| COc1ccccc1-c1n[nH]c2nc(NC3CCN(C(=O)Cc4ccc(F)cc4F)CC3)ncc12 | – | bead binding, competition bead pull-down, item: LINJ.34.0720 | Leishmania donovani extract | 10 µM | baseline: vehicle | relative abundance | 0.84 |
| CC[C@H](C)[C@H](NC(=O)CN)C(=O)N[C@@H](Cc1c[nH]c2ccccc12)C(=O)N[C@@H](CCCCN)C(=O)N1CCC[C@H]1C(=O)N[C@H](C(=O)N[C@@H](Cc1ccccc1)C(=O)N[C@H](C(=O)N[C@@H](Cc1ccc(O)cc1)C(=O)N[C@@H](CC(C)C)C(=O)N[C@@H](C)C(=O)N[C@H](C(=O)N1CCC[C@H]1C(=O)N[C@H](C(=O)N[C@@H](Cc1c[nH]cn1)C(=O)N[C@@H](Cc1ccccc1)C(=O)N[C@@H](CCCCN)C(=O)N[C@@H](Cc1ccccc1)C(=O)O)[C@@H](C)CC)[C@@H](C)O)[C@@H](C)O)[C@@H](C)CC | HUVEC | cytotoxicity, MTT | – | 24 h, 37 °C | – | IC50 | 39.5 µM |
